Assay results pooled from the literature.
Each line is one published result; not all experiments were run side by side. Several values in a cell are separate wells, animals, samples, runs or records. Numbers after ± are the reported error.

C[C@@]1(c2cc(NC(=O)c3ccc(C#N)cn3)ccc2F)C=CSC(N)=N1 — dose-normalised Cmax (elderly humans, both sexes, plasma; oral, 90 mg single dose): 5.8 ng/mL
Cc1ccc(Sc2ccccc2N2CCNCC2)c(C)c1 — participants with TEAE (refers to: ureteric calculus; healthy adult men; oral, 10 mg daily, 12 days): 16.7%
C[C@@H](c1ncncc1F)[C@](O)(Cn1cncn1)c1ccc(F)cc1F — serious TEAE (human; oral, 200 mg, drug interaction trial): 0%
CCCCOc1ccc([C@H]2CC[C@H](CCC)CC2)c(F)c1F — median concentration (human mother-newborn pairs, cord serum): 6.23 ng/mL
OC[C@H]1O[C@@H](c2ccc(F)c(Cc3cc4ccccc4s3)c2)[C@H](O)[C@@H](O)[C@@H]1O — hypoglycaemia adverse events (Japanese type 1 diabetes patients; oral, 25 mg/day, day 14): 5 % patients
CCN1CCN(Cc2ccc(NC(=O)c3ccc(C)c(NC(=O)c4cncc(-c5cccs5)c4)c3)cc2C(F)(F)F)CC1 — plasma concentration (LC-MS/MS; C57BL/6 mouse, plasma; intraperitoneal, 10 mg/kg single dose, 4 h): 0.094 µg/mL and 0.086 µg/mL and 0.091 µg/mL
C=CC(=O)N1CCC(c2ccc(C(N)=O)c(-c3ccc(Oc4ccccc4)cc3)n2)CC1 — incidence of grade ≥3 TRAEs (CTCAE 4.03; patients with relapsed/refractory MCL; oral, 150 mg once daily): 12.5%
CC(C)(C(=O)N1CCOc2c(C#N)cncc2C1)C(F)F — subjects with adverse event (refers to: conjunctival hyperaemia; human; oral, 20 mg twice daily, 14 days, multiple ascending dose): 0%
Cl.[2H]C([2H])([2H])CC(=O)c1cnc(NC(=O)C2CC2)cc1Nc1cccc(-c2ncn(C([2H])([2H])[2H])n2)c1OC — half-life (geometric mean; human; oral, 40 mg twice daily, day 1, fed, liquid, multiple dose): 296 min
CC(=O)O[C@H]1C(=O)[C@@]2(C)[C@H]([C@H](OC(=O)c3ccccc3)[C@]3(O)C[C@H](OC(=O)[C@H](O)[C@@H](NC(=O)c4ccccc4)c4ccccc4)C(C)=C1C3(C)C)[C@]1(OC(C)=O)CO[C@@H]1C[C@@H]2O — adverse events, any (patients with advanced solid tumours; intravenous, dose not given, phase Ib, possibly related to compound): 24%
C#Cc1cccc(Nc2ncnc3cc(OCCOC)c(OCCOC)cc23)c1 — dose-adjusted solubility (FaSSIF; literature solubility over dose): 8.27e-05 mL⁻¹
Cc1nc(-c2ccc(OCC(C)C)c(C#N)c2)sc1C(=O)O — subjects with abdominal pain (healthy Chinese subjects, fasted; oral, 40 mg single dose): 2.6%
C[C@@H]1COCCN1c1cc(C2([S@](C)(=N)=O)CC2)nc(-c2cc[nH]c3nccc2-3)n1 — Pyelonephritis incidence (Japanese advanced solid tumour patients; oral, 240 mg twice daily, any grade): 16.7%
CN[C@@H](C)C(=O)N[C@H]1CN(S(=O)(=O)c2cccc(S(=O)(=O)N3CC[C@H]4CC[C@@H](C(=O)NC(c5ccccc5)c5ccccc5)N4C(=O)[C@@H](NC(=O)[C@H](C)NC)C3)c2)CC[C@H]2CC[C@@H](C(=O)NC(c3ccccc3)c3ccccc3)N2C1=O — AUC(0-t) (LC-MS/MS; human, advanced solid tumours, plasma; intravenous, 7 mg weekly, day 15): 137 ± 47.9 ng·h/mL
COc1cc2c(c(O)c1OC)C(=O)c1c(cc(C)c(O[C@@H]3O[C@H](CO)[C@@H](O)[C@H](O)[C@H]3O)c1OC)C2=O — cell viability (HK-2 co-cultured with HepaRG; MTT; 266.67 µM, 48 h; reference: untreated control): 66.3 ± 11.6%
C[C@@H]1CCO[C@H]2Cn3cc(C(=O)NCc4ccc(F)cc4F)c(=O)c(O)c3C(=O)N12 — AUC(0-24) (population PK, post-hoc; children, 10 to <14 kg, plasma; oral, 15 mg dispersible tablet, steady state, geometric mean): 53 µg·h/mL
O=C(CCCCCCC(=O)Nc1ccc(CC[18F])cc1)NO — tissue uptake (athymic nu/nu male mice, LNCaP xenograft, kidney; intravenous, 1 h): 5 ± 0.7 %ID/g
CCc1cc(C(=O)NC)c2nccc(N3CCc4c(cc(Cn5ccnc5)cc4-c4cn(C)nc4C(F)(F)F)C3=O)c2c1 — brain weight change (Sprague Dawley rat; oral, 100 mg/kg once daily, 7 days; reference: vehicle): 1.55%
COc1ccc2c(c1)CN(C(=O)CCN1CCC(Cc3ccccc3)CC1)CC[S@@+]2[O-] — mean plasma concentration (male beagle dogs, plasma; intravenous, 8 mg/kg, day 1, 14-day toxicity study): 6440 ng/mL
C=CCN1CC(=O)N2[C@@H](Cc3ccc(O)cc3F)C(=O)N(Cc3cccc(N4CC(N5CCN(CC)CC5)C4)n3)C[C@@H]2N1C(=O)NCc1ccccc1 — treatment-related adverse events (refers to: ALT increased; human advanced solid tumours; concentration not given, dose escalation any grade): 11.1%
COc1cc2c3c(n(CCCNC(C)C)c(=O)c2cc1OC)-c1nc2c(cc1C3=O)OCO2 — dose-normalized AUC(0-t) (male CD1 mouse, plasma; oral, 10 mg/kg): 64.3 ng·h/mL
O=C(c1cccnc1-c1ccncc1)N1CCC(O)(Cc2ccccc2)CC1 — Vz/F (healthy Japanese adults, plasma; oral, 100 mg twice daily, day 7): 2940 L
COc1ncc(-c2nc3c(n2C(C)C)[C@H](c2ccc(Cl)cc2)N(c2cc(Cl)cn(C)c2=O)C3=O)c(OC)n1 — median half-life (human patients, plasma; oral, 250 mg, high-dose arm, cycle 1 day 1): 930 min
CN(CCC#N)C1CCN(C(=O)Cn2cc(NC(=O)c3cnn4cccnc34)c(-c3cc(Cl)ccc3OC(F)F)n2)CC1 — capsule residue (human; inhalation, 1 mg single dose; reference: loaded dose): 15.5%
COc1ccc2[nH]c([S+]([O-])Cc3ncc(C)c(OC)c3C)nc2c1 (centres unmarked) — AUC(0-t) (healthy Chinese volunteers, plasma; oral, 20 mg, fed, CYP2C19 normal metabolizers): 425 ± 560 ng·h/mL
C[C@@H](Nc1cc(F)cc(F)c1)c1cc(C(=O)N(C)C)cc2c(=O)cc(N3CCOCC3)oc12 — share of patients with dose reduction (patients with advanced solid tumours; oral, 120 mg twice daily continuous, monotherapy dose-expansion): 0%
COc1cc2c(c(O)c1OC)C(=O)c1c(cc(C)c(O)c1OC)C2=O — cell viability (HK-2 co-cultured with HepaRG; MTT; 266.67 µM, 48 h; reference: untreated control): 30.4 ± 2.43%
Cc1nn(CC(F)(F)F)cc1Nc1ncc(Br)c(NCCCNC(=O)C2CCC2)n1 — effective permeability (PAMPA; PBS; 5 h, pH 7.4): 3.73e-06 cm/s
C=CC(=O)NC1CCN(c2ncc3ncnc(Nc4ccc(Oc5ccc6c(c5)ncn6C)c(C)c4)c3n2)CC1 — blood-to-plasma ratio (refers to: total radioactivity; healthy male human, whole blood and plasma; oral, 60 mg, 1 h, geometric mean): 0.767
CO[C@@H]1[C@H](O)[C@@H](CO)O[C@H]1n1c([N+](=O)[O-])nc2c(=O)[nH]c(N)nc21 — nucleoside remaining fraction (depurination, RP-HPLC; citrate-phosphate buffer 0.5 mM; 355 min, pH 2, 37 °C): 0.663
Cc1cc(-c2nnc(N)nc2-c2ccc(F)cc2)cc(Cl)n1 — terminal half-life (human patients, plasma; oral, 150 mg capsule once daily, multiple doses, arithmetic mean): 373 min
Cc1cc(-c2nccc3c2ccn3CC(=O)Nc2ccc(-c3cnccn3)cn2)ccn1 — subjects with any grade 3 TEAE (human; MAD part, 20 mg once daily): 0%
FC(F)(F)c1ccc(CNc2ccc(Cc3c[nH]c4ncc(Cl)cc34)cn2)cn1 — treatment-related adverse events (refers to: periorbital oedema; human, advanced solid tumours, non-TGCT cohort; oral, 1000 mg/day, any grade): 6%
O=C1NCCc2nc(OCc3cccc(F)c3)ccc21 — Irwin test score (refers to: loss of Placing; Sprague-Dawley rat male; oral, 100 mg/kg, 0 min; reference: baseline, direction not given): 0
N#Cc1ccn2c(-c3ccncc3)c(-c3ccc(F)cc3)nc2c1 — MRT (CD1 mouse female; oral, 25 mg/kg): 840 min
O=C(Nc1nc2cccc(-c3ccc(CN4CCS(=O)(=O)CC4)cc3)n2n1)C1CC1 — treatment-emergent adverse events (refers to: paraesthesia; human rheumatoid arthritis patients; oral, 200 mg once daily, 4 weeks, regardless of relatedness): 0%
C=CC(=O)N(C)CCOc1c(N)ncnc1-c1cc(F)cc(NC(=O)c2ccc(C3CC3)cc2F)c1C — AUC(0-inf) per dose (human; oral, 50 mg, day 3, geometric mean, given alone): 4.85 ng·h/mL/mg
CCCC[C@H](NC(=O)[C@@H](NC(=O)[C@H](CCC(=O)O)NC(=O)CNC(=O)[C@@H](NC(=O)[C@H](Cc1ccccc1)NC(=O)[C@H](C)NC(=O)[C@H](CCCCN)NC(=O)CNC(=O)[C@H](Cc1ccccc1)NC(=O)[C@H](CCCCN)NC(=O)[C@H](CCCCN)NC(=O)[C@]1(C)CCCC=CCCC[C@](C)(NC(=O)[C@H](CCCCN)NC(=O)CNC(=O)[C@@H](NC(=O)CN)[C@@H](C)CC)C(=O)N[C@@H](CC(C)C)C(=O)N[C@@H](Cc2c[nH]cn2)C(=O)N[C@@H](CO)C(=O)N1)C(C)C)[C@@H](C)CC)C(=O)N[C@@H](CC(N)=O)C(=O)N[C@@H](CO)C(N)=O — retention time (HPLC C18 column): 13.4 min
CCN1/C(=C/C(C)=O)Sc2ccc(F)cc21 — PR interval change (cynomolgus monkey; oral, 100 mg/kg, 0.5 h post-dose; reference: pre-dose): 101 ± 7.1%
CC[C@H](C)[C@H](NC(=O)[C@H](CCCNC(=N)N)NC(=O)[C@H](CCC(=O)O)NC(C)=O)C(=O)N[C@H]1CSSC[C@@H](C(=O)N[C@H](C(N)=O)[C@@H](C)O)NC(=O)[C@H](CCCNC(=N)N)NC(=O)[C@H](Cc2c[nH]cn2)NC(=O)[C@H](Cc2cccc3ccccc23)NC(=O)CNC(=O)[C@H](Cc2c[nH]c3ccccc23)NC(=O)[C@H](CC(=O)O)NC(=O)[C@H](CCC(N)=O)NC(=O)[C@H](Cc2c[nH]c3ccccc23)NC(=O)[C@H](C(C)C)NC1=O — retention factor (isocratic RP-HPLC, C18; 32% acetonitrile, phosphate pH 7.4, 1% TFA; 25 °C): 1.325 ± 0.01
Cc1ccc([C@@H]2O[C@H](CO)[C@@H](O)[C@H](O)[C@H]2O)cc1Cc1ccc(-c2ccc(F)cc2)s1 — urinary phosphate excretion change (refers to: inorganic phosphorus; Japanese type 2 diabetes patients; 200 mg, day 4, 24 h urine collection; reference: baseline): 55.6 mg
